Assay results pooled from the literature.
Every numbered part comes from another study and shows a few of its results, in no order.
Sequence of UniProt Q8NEB9 (whole entry, looked up): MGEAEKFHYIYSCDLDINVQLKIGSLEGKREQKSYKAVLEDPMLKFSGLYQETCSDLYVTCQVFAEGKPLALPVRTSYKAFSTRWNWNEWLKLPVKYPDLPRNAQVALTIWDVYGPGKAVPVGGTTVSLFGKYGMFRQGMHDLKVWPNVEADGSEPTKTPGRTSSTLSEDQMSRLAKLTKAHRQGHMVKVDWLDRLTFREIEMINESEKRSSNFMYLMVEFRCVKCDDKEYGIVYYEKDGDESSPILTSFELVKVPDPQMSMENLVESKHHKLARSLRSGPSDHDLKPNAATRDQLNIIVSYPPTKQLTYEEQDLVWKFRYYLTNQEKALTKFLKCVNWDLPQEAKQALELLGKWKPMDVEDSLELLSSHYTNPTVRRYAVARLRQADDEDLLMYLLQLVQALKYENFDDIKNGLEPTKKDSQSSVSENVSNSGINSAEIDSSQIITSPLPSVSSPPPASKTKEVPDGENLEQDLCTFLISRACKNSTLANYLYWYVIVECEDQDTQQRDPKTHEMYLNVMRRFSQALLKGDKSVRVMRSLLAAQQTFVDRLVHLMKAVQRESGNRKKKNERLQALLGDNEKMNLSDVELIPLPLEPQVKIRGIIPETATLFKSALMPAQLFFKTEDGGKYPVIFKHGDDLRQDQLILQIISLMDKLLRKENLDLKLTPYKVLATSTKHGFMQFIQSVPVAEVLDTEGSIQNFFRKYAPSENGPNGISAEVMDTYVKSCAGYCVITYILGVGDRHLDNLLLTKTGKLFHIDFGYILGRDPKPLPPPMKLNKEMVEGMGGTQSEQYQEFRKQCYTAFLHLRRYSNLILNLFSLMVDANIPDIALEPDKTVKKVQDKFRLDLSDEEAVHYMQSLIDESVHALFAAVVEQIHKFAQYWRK
Sequence of UniProt O94921 (whole entry, looked up): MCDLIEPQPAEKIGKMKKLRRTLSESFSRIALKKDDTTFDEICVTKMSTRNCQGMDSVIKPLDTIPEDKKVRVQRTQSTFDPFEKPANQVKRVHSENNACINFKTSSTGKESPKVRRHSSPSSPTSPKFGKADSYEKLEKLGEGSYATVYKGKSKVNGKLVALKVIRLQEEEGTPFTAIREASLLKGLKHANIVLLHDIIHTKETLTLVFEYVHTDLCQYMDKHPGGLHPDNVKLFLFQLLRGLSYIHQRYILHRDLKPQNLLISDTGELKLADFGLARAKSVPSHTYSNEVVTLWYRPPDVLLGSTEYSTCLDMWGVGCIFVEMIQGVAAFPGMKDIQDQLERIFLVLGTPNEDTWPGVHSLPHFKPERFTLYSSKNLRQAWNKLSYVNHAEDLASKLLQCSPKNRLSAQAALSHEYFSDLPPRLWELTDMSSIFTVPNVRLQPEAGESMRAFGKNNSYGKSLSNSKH
Sequence of UniProt Q13557 (whole entry, looked up): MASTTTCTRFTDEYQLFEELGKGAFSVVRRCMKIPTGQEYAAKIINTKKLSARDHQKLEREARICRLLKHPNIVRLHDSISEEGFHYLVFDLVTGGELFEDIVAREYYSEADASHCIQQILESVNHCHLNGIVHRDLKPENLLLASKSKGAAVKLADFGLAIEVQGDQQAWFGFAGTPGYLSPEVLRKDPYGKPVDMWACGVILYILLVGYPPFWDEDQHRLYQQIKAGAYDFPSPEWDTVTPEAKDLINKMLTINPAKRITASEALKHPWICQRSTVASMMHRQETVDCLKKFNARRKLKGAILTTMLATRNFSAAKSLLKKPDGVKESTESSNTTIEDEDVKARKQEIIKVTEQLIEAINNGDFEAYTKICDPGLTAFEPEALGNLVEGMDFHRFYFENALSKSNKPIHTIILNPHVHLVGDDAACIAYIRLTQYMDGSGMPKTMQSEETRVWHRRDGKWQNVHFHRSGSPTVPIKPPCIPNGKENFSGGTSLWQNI
Sequence of UniProt Q6XUX3 (whole entry, looked up): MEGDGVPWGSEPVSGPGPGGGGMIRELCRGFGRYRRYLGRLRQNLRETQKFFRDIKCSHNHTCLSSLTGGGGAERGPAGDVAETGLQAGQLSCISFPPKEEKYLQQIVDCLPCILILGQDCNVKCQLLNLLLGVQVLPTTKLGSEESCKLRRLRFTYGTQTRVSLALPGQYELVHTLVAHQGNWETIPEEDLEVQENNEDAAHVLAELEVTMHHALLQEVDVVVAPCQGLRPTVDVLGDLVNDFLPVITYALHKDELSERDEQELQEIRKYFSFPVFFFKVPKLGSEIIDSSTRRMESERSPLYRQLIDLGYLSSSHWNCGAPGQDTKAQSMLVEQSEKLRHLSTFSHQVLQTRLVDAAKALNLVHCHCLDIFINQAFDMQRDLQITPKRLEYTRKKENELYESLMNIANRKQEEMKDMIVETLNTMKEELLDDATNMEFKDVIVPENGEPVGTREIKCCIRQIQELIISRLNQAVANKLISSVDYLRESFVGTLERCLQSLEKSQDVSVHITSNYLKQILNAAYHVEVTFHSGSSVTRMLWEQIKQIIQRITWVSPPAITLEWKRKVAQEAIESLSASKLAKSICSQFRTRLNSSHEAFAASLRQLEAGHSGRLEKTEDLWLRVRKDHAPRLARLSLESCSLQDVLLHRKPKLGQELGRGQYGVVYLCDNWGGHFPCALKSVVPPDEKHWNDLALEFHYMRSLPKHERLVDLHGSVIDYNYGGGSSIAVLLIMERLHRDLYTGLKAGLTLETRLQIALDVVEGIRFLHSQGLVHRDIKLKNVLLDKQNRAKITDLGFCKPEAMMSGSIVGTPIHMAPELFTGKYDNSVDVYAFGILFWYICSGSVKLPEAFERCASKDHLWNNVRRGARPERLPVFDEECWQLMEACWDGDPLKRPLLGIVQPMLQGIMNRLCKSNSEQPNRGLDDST
Sequence of UniProt P17948 (whole entry, looked up): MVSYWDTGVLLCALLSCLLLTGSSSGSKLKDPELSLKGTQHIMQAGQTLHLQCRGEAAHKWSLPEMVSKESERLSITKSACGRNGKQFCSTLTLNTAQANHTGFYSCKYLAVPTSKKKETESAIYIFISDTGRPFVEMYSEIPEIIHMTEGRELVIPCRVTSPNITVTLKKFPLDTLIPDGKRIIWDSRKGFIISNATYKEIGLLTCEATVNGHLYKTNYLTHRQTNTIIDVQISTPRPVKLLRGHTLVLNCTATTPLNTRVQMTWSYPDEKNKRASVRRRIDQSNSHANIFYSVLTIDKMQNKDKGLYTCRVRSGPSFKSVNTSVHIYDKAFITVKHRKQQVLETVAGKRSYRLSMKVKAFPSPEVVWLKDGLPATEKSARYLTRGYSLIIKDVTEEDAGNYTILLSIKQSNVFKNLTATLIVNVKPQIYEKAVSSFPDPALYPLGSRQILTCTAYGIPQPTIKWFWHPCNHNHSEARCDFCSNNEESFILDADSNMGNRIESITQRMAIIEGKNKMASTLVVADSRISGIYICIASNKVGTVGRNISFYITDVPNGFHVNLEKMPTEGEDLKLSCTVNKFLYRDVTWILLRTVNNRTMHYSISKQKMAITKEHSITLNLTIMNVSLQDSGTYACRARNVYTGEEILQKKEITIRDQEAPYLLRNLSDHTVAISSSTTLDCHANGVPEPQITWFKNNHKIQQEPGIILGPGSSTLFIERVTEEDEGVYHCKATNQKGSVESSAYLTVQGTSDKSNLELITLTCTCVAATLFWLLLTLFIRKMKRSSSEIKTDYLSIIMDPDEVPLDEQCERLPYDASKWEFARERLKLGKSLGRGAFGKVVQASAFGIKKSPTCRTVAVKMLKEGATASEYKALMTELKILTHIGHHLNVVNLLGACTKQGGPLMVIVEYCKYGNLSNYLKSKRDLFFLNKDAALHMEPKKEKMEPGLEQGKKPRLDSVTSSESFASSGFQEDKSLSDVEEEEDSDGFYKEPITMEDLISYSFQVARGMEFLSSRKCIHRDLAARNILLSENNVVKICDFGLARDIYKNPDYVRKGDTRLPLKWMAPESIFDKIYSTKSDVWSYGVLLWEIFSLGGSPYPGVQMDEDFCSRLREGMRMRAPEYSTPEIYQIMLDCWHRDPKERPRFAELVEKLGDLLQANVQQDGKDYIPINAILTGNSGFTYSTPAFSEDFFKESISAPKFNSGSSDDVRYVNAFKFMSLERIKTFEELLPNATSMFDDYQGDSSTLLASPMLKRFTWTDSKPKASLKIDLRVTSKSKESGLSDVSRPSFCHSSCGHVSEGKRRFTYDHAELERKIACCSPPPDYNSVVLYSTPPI
Sequence of UniProt Q16832 (whole entry, looked up): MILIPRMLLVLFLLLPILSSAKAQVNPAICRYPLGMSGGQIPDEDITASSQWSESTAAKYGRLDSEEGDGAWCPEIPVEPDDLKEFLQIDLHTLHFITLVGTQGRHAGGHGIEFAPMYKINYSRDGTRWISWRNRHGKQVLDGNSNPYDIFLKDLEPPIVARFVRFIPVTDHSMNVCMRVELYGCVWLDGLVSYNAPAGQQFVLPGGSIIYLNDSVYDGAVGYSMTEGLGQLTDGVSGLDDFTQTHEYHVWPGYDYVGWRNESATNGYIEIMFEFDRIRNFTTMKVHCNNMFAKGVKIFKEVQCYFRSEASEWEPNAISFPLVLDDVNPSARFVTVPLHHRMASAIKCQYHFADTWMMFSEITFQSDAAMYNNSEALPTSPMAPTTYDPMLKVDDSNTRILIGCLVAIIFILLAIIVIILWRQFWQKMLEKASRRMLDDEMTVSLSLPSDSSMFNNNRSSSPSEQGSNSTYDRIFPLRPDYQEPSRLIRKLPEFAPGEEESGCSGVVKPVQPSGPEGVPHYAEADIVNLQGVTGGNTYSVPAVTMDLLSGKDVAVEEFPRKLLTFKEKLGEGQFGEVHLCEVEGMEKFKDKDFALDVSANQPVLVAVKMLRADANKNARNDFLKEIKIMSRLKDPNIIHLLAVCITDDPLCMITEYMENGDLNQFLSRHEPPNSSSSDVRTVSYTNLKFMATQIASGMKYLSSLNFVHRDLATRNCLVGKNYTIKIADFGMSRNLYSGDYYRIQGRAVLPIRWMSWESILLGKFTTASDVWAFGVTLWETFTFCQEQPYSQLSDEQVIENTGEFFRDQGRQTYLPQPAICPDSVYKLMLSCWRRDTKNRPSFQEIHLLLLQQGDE

Sample 1
Organism: Plasmodium berghei
Action: inhibitor
Cell line: Huh-7
Strain: GFP-expressing, liver stage
Concentration: 10 µM
Time: 24 h
Baseline: untreated control
Quantity: infection rate
CCN1CCCC1CNC(=O)c1cc(S(N)(=O)=O)ccc1OC (centres unmarked): 82%
Cc1ccc(N(CC2=NCCN2)c2cccc(O)c2)cc1: 84.2%
O=C(Oc1ccccc1C(=O)O)c1ccccc1O: 119%
CC(C)(C)NC[C@H](O)COc1nsnc1N1CCOCC1: 96%
CC(C)(S)[C@@H](N)C(=O)O: 90.2%
CC1COc2c(N3CCN(C)CC3)c(F)cc3c(=O)c(C(=O)O)cn1c23 (centres unmarked): 91.1%
CC[C@@H]1C(=O)OC[C@@H]1Cc1cncn1C: 105%
C[C@@H](NCCc1ccc(O)cc1)[C@@H](O)c1ccc(O)cc1 (racemic): 98.4%
CCC1(C)OC(=O)N(C)C1=O (centres unmarked): 96.2%

Sample 2
Cell line: HaCaT
Concentration: 100 µM
Time: 18 h
Quantity: viability
CCCNC(C)C(=O)Nc1c(C)csc1C(=O)OC (centres unmarked): 108%
Cc1cc(N)c2ccccc2[n+]1CCCCCCCCCC[n+]1c(C)cc(N)c2ccccc21: 77.4%
O=C(CCCCCCNC(=O)c1cnc(N(c2ccccc2)c2ccccc2)nc1)NO: 77.5%
N#C[C@@H]1CCCN1C(=O)CNC12CC3CC(CC(O)(C3)C1)C2: 99.1%
CC(C)OC(=O)C(C)(C)Oc1ccc(C(=O)c2ccc(Cl)cc2)cc1: 79.8%
Cc1cccc(C)c1NC(=O)C1CCCCN1C (centres unmarked): 110%
Cc1ccc(C(=O)c2cc(O)c(O)c([N+](=O)[O-])c2)cc1: 41.5%
CC(=O)OCC(=O)NCCCOc1cccc(CN2CCCCC2)c1: 94.6%
CC(=O)Nc1ccc(OC(=O)c2ccccc2OC(C)=O)cc1: 89.9%
CCCc1nc2c(C)cc(-c3nc4ccccc4n3C)cc2n1Cc1ccc(-c2ccccc2C(=O)O)cc1: 99.1%
O=C(CS(=O)(=O)Cc1ccccc1)N1CCOCC1: 116%
COc1ccnc(C[S+]([O-])c2nc3ccc(OC(F)F)cc3[nH]2)c1OC (centres unmarked): 95.3%
CNCCCN1c2ccccc2CCc2ccccc21: 19.5%

Sample 3
Structure (SMILES): C[C@H](NC(=O)c1cnc2n1[C@](C)(Cc1ccc(C#N)cc1)C(=O)N2c1cc(Cl)c(F)c(Cl)c1)C(=O)NC1(c2ccccn2)CC1
Observed: cell-free assay
Technique: competition with immobilised ligand
Concentration: 1 µM
Quantity: remaining binding
EGFR (Homo sapiens, UniProt P00533, del747-752/P753S): 82%
ABL2 (Homo sapiens, UniProt P42684): 83%
DSTYK (Homo sapiens, UniProt Q6XUX3): 87%
DDR2 (Homo sapiens, UniProt Q16832): 100%
PIK3C3 (Homo sapiens, UniProt Q8NEB9): 100%
CAMK2D (Homo sapiens, UniProt Q13557): 100%
FLT1 (Homo sapiens, UniProt P17948): 100%
EGFR (Homo sapiens, UniProt P00533, A750P/del747-749): 100%
PKN2 (Homo sapiens, UniProt Q16513): 63%
PDGFRB (Homo sapiens, UniProt P09619): 91%
ALK (Homo sapiens, UniProt Q9UM73, C1156Y): 100%
CDK14 (Homo sapiens, UniProt O94921): 100%
KDR (Homo sapiens, UniProt P35968): 99%

Sample 4
Species: mouse
Medium: microsomes or S9
Concentration: 2 µM
Time: 0.5 h
Quantity: remaining compound
N#Cc1cccc(Nc2cccc3c2CN(c2cccc(C(=O)O)c2)C3=O)c1: 61.4%
Cn1cc(-c2ccc(=O)n(CC3CN(c4ncc(OCCN5CCCC5)cn4)CCO3)n2)cn1 (centres unmarked): 74.3%
CC1(C)Cc2nc(N3CCCC3)c(C#N)cc2CO1: 0.677%
Cc1nn(-c2nnn(CC(=O)O)n2)c(C)c1Br: 98.7%
Cn1cc(C2c3ccccc3C(=O)N2C2CCCCC2)c2ccccc21 (centres unmarked): 7.85%
CCc1cc(-c2n[nH]c(C(=O)O)c2-c2nc(C)cs2)c(O)cc1O: 98.8%
Cc1ccc2c(c1)nnn2C1CCN(C(=O)N(c2ccccc2)c2ccccc2)CC1: 0.899%
CCCn1ncc(N2CCC(C(=O)N3CCN(CCOc4ccc(Cl)cc4)CC3)CC2)cc1=O: > 100%
COc1ccc(/C=C2\OC(=O)C=C2c2ccc(O)cc2)cc1: 57.5%
c1ccc2c(c1)OCC(c1noc(CCc3c[nH]nn3)n1)O2 (centres unmarked): > 100%
CCOC(=O)Cn1c2c(c(=N)c3c1CCC3)CCC2: 92.2%
O=C(c1c2c(nc3ccccc13)C(=O)N(C1CCCCC1)C2)N1CCN(C2CCCCC2)CC1: 11.5%
COc1c2c(c(S(=O)(=O)N3CCOCC3)c3c1C(=O)N(C)CC3)OCO2: 88.2%
Cc1ccc(Cn2c(=O)c3nn(C)cc3n3c(=O)n(Cc4nc(-c5ccccc5)oc4C)nc23)cc1: 2.19%
COc1c(C)c(C)c2nc(NCc3ccc(S(N)(=O)=O)cc3)sc2c1C: 44.4%

Repeated from above (sample 2):
CCCNC(C)C(=O)Nc1c(C)csc1C(=O)OC (centres unmarked): 108%
N#C[C@@H]1CCCN1C(=O)CNC12CC3CC(CC(O)(C3)C1)C2: 99.1%
O=C(CCCCCCNC(=O)c1cnc(N(c2ccccc2)c2ccccc2)nc1)NO: 77.5%
Cc1ccc(C(=O)c2cc(O)c(O)c([N+](=O)[O-])c2)cc1: 41.5%
Cc1cccc(C)c1NC(=O)C1CCCCN1C (centres unmarked): 110%
COc1ccnc(C[S+]([O-])c2nc3ccc(OC(F)F)cc3[nH]2)c1OC (centres unmarked): 95.3%
CC(=O)Nc1ccc(OC(=O)c2ccccc2OC(C)=O)cc1: 89.9%
